# Results pooled from the literature.
# Every numbered part comes from another study and shows a few of its results, in no order. Changes are numbered by the printed parent chain.

# Block 1 — target: tungstate, free oxyanion; technique: microfluidic competitive inhibition; medium: in vitro, cell-free expressed; tested at: not given; reading: lower = stronger binding
# Setting: derived from inhibition constants, unchanged parent 2230 nM
# Starting sequence: PafA, mature enzyme, eGFP fusion (Elizabethkingia meningoseptica, UniProt Q9KJX5); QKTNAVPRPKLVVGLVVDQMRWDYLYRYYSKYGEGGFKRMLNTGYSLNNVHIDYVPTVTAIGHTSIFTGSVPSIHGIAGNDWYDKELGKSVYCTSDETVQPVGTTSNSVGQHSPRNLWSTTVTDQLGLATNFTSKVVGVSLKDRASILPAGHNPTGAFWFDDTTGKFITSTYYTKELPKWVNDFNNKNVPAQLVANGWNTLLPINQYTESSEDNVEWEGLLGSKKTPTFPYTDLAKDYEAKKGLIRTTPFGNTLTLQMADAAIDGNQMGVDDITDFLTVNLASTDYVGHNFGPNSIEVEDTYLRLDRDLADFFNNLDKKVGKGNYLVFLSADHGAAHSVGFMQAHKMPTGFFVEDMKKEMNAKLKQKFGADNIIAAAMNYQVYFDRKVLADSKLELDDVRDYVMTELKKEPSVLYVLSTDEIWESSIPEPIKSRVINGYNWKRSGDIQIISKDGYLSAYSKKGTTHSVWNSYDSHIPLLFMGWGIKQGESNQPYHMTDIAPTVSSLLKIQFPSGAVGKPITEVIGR
Change,oxyanion analog dissociation constant
K322G,2.2 µM
H289V,29.2 µM
W441G,1.44 µM
G350A,2.29 µM
C93G,3.64 µM
K518V,2.25 µM
E209G,1.53 µM
G445A,1.19 µM
L15G,1.7 µM
V189A,2.57 µM
S451V,2.32 µM
N280V,169 µM
E410G,2.48 µM
F276G,1.03 µM
C93V,1.67 µM
G197A,1.56 µM

# Block 2 — target: OGT, full length, His-tagged (human); technique: phage display, sequencing; medium: in vitro; tested at: 1 µg OGT; reference: input library; reading: higher = stronger binding; starting sequence: peptide; VAYPNSYMPKYQIST
# Setting: single substitutions, 15-mer displayed peptide, unchanged parent 6.14
Change,fold enrichment [fold]
VAYPKSYMPKYQIST [N5K],3.18
VAYPNSYMPGYQIST [K10G],0.825
VAYPNSYMPKYHIST [Q12H],0.747
VAYPNSYMPKYQITT [S14T],9.15
VAYPHSYMPKYQIST [N5H],5.69
VAYPNSYMPKYAIST [Q12A],0.624
VAYPNSYMPKYQISV [T15V],9.41
VAIPNSYMPKYQIST [Y3I],5.45

# Block 3 — technique: aptamer microarray, sandwich; molecule type: DNA with 2'F-ANA; medium: in vitro; tested at: 200 nM; added: Cy3 exosite-II aptamer, 400 nM; reading: higher = stronger binding; oligonucleotide: GGTTGGTGTGGTTGG
# Target: Prothrombin, mature alpha-thrombin (F2, Homo sapiens, UniProt P00734)
# Setting: whole 15-mer aptamer, many near background
Modification,mean fluorescence intensity [a.u.]
2'F-ANA at 2 3 4 8 9 10 13 15,213
2'F-ANA at 1 4 7 8 13 14,55.5
2'F-ANA at 2 3 5 7 10 11 13 14 15,57.9
2'F-ANA at 1 2 3 5 6 10 11 12 14,47.8
2'F-ANA at 2 3 5 6 10 11 12 15,83.1
2'F-ANA at 1 2 3 5 6 9 10 12 13 15,50.8
2'F-ANA at 3 4 8 9 10 13 15,241
2'F-ANA at 1 2 10 11 12,60.7

# Block 4 — target: CCND1, cyclin fold, Cln2 fusion (human); technique: yeast growth competition, sequencing; medium: yeast; setting: weak parent motif; reference: not given; reading: higher = stronger binding
# Starting sequence: viral docking peptide; TSVRRALFTGGSD; partner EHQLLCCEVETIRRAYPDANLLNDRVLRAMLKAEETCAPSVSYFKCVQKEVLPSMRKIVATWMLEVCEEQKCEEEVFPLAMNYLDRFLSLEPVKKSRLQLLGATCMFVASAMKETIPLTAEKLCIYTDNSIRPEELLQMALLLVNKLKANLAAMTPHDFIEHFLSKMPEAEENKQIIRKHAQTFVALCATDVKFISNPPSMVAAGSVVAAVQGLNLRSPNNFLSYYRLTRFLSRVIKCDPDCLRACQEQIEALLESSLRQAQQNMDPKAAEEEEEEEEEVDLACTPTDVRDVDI
Change,normalised enrichment score
S2M,0.449
A6H,0.594
S12M,0.217
F8A,0.0485
G10K,0.275
G11A,0.529
G11Y,0.000192
G11H,0.267
R4Y,0.425
A6G,0.261
S12R,0.487
S12F,0.171
S12H,0.316
R4S,0.791
R5I,0.359
